Measured values gathered from unrelated publications.
Protocols differ between the studies behind these lines. ± marks the error that the study gave. Converted amounts (≈) assume the structure as drawn.
Organism: Pseudomonas aeruginosa

For `CC(C)CC1NC(=O)C(C(=O)NC(C(=O)NC2C(=O)N3C2SC(C)(C)C3C(=O)O)c2ccccc2)=C1O` (stereo not drawn), the MIC was 25 µg/mL (≈ 47.1 µM) (fpvB mutant).
`CC(C)C[C@H](NC(=O)[C@H](CCN)NC(=O)[C@H](CCN)NC(=O)[C@@H](Cc1ccccc1)NC(=O)[C@H](CC(C)C)NC(=O)[C@H](CCN)NC(=O)[C@H](CCN)NC(=O)[C@@H](CCN)NC(=O)CCSCCOC(=O)c1ccc(C(C)(C)C)cc1)C(N)=O` has an MBC of 16 µM (PAO1; 24 h, 37 °C).
The MBC of `N=C(N)NCCC[C@H](NC(=O)[C@H](Cc1c[nH]c2ccccc12)NC(=O)[C@H](CCCNC(=N)N)NC(=O)[C@@H](N)Cc1c[nH]c2ccccc12)C(=O)N[C@@H](Cc1ccccc1)C(=O)N[C@@H](CCC(N)=O)C(=O)N[C@@H](Cc1ccccc1)C(=O)N[C@@H](CCC(N)=O)C(=O)N[C@@H](Cc1ccccc1)C(=O)N[C@@H](CCCCN)C(N)=O` is reported as 1130 µM.
The MIC90 of `CCCCCCCCCCCc1c([N+](=O)[O-])oc2ccc3ccccc3c12` is reported as > 32 µg/mL (REMA).
For `Cn1cc([S+]([O-])c2ccc3nc(N)sc3c2)cn1` (stereo not drawn), the inhibition was 5.24% (pyocyanin production; PA14-lux; 200 µM, 18 h; baseline: DMSO vehicle).
For `CC1(C)SC2C(NC(=O)C(NC(=O)C3=C(O)C4CCCN4C3=O)c3ccccc3)C(=O)N2C1C(=O)O` (stereo not drawn), the MIC was 25 µg/mL (≈ 48.6 µM) (broth microdilution; TonB-dependent receptor mutant; PA two-allele library).
`CC[C@H](C)[C@H](NC(=O)[C@H](CC(N)=O)NC(=O)[C@H](CCCCN)NC(=O)[C@H](CC(=O)O)NC(=O)[C@H](Cc1ccc(O)cc1)NC(=O)[C@H](Cc1ccc(O)cc1)NC(=O)[C@H](Cc1ccc(O)cc1)NC(=O)[C@H](CCCNC(=N)N)NC(=O)[C@H](CC(C)C)NC(=O)CNC(=O)[C@H](CCCNC(=N)N)NC(=O)[C@@H](N)CO)C(=O)N[C@H](C(=O)N[C@@H](Cc1c[nH]cn1)C(=O)N[C@@H](CCCCN)C(=O)N[C@H](C(=O)N[C@@H](C)C(=O)NCC(=O)N[C@@H](CCCCN)C(=O)N[C@@H](CCCNC(=N)N)C(=O)N[C@@H](Cc1ccc(O)cc1)C(=O)N[C@H](C(=O)N[C@@H](Cc1ccc(O)cc1)C(=O)N[C@@H](CCCNC(=N)N)C(=O)N[C@@H](Cc1ccccc1)C(=O)N[C@H](C(=O)O)C(C)C)C(C)C)[C@@H](C)O)[C@@H](C)CC` gave an MBC of 64 µg/mL.
The pyocyanin production of `COc1cccc(C(=O)C#Cc2ccc(O)c(OC)c2)c1` is reported as 56% (10 µM, 24 h; baseline: untreated).
`CC1(C)SC2C(NC(=O)C(NC(=O)C3=C(O)C(Cc4ccsc4)NC3=O)c3ccccc3)C(=O)N2C1C(=O)O` (stereo not drawn) gave an MIC of 50 µg/mL (≈ 87.6 µM) (pvcA mutant).
For `O=[N+]([O-])c1cc2cc3ccc4oc([N+](=O)[O-])cc4c3cc2o1`, the MIC90 was > 32 µg/mL (REMA).
The MIC90 of `CC[C@H](C)[C@H](NC(=O)[C@H](C)NC(=O)[C@H](CCCCN)NC(=O)[C@H](CC(C)C)NC(=O)[C@H](C)NC(=O)[C@@H](NC(=O)[C@H](Cc1c[nH]cn1)NC(=O)[C@H](CC(C)C)NC(=O)[C@@H](NC(=O)[C@@H](NC(=O)[C@H](CCCCN)NC(=O)[C@H](C)NC(=O)[C@H](C)NC(=O)[C@H](CO)NC(=O)[C@H](CCCCN)NC(=O)[C@H](Cc1ccccc1)NC(=O)[C@@H](NC(=O)[C@H](CCCCN)NC(=O)[C@H](CC(C)C)NC(=O)[C@H](Cc1ccccc1)NC(=O)[C@H](CO)NC(=O)[C@H](CCCCN)NC(=O)[C@H](Cc1c[nH]c2ccccc12)NC(=O)[C@H](CCCCN)NC(C)=O)[C@@H](C)O)[C@@H](C)O)C(C)C)[C@@H](C)O)C(=O)N[C@@H](CO)C(=O)N[C@@H](CO)C(N)=O` is reported as 16 µg/mL (≈ 5.45 µM) (IPM-S; 43 strains).
`CC(C)C[C@H](NC(=O)[C@H](CCN)NC(=O)[C@H](CCN)NC(=O)[C@@H](Cc1ccccc1)NC(=O)[C@H](CC(C)C)NC(=O)[C@H](CCN)NC(=O)[C@H](CCN)NC(=O)[C@@H](CCN)NC(=O)[C@@H](N)CSCCOC(=O)C(C)(C)C)C(N)=O` gave an MBC of > 128 µM (PAO1; 24 h, 37 °C).
The MBC of `CC[C@H](C)[C@H](NC(=O)[C@H](Cc1c[nH]c2ccccc12)NC(=O)[C@@H](NC(=O)[C@H](Cc1ccccc1)NC(=O)[C@@H]1CCCN1C(=O)[C@@H](NC(=O)[C@H](C)N)[C@@H](C)CC)[C@@H](C)CC)C(=O)N[C@@H](Cc1ccccc1)C(=O)N[C@@H](CCCNC(=N)N)C(=O)N[C@@H](CC(C)C)C(=O)N[C@@H](CC(C)C)C(=O)N[C@@H](CCCNC(=N)N)C(=O)N[C@@H](CCCCN)C(=O)NCC(N)=O` is reported as > 15 µM (PAO1; 18 h, 37 °C).
The inhibition of `Nc1nc2ccc(Oc3ccc(=O)[nH]c3)cc2s1` is reported as 7% (pyocyanin production; PA14-lux; 200 µM, 18 h; baseline: DMSO vehicle).
With `O=C(O)CN(CC(=O)O)CC(=O)O` the meropenem MIC was 2 µg/mL (VIM-2 producer; 32 µg/mL, together with: meropenem).
`CC[C@H](C)[C@H](NC(=O)[C@H](Cc1ccc(O)cc1)NC(=O)[C@@H](NC(=O)[C@H](Cc1c[nH]c2ccccc12)NC(=O)[C@@H]1CCCN1C(=O)[C@@H](NC(=O)[C@H](C)N)[C@@H](C)CC)[C@@H](C)CC)C(=O)N[C@@H](Cc1ccc(O)cc1)C(=O)N[C@@H](CCCNC(=N)N)C(=O)N[C@@H](CC(C)C)C(=O)N[C@@H](CC(C)C)C(=O)N[C@@H](CCCNC(=N)N)C(=O)N[C@@H](CCCCN)C(=O)NCC(=O)O` has an MBC of 15 µM (PAO1; 18 h, 37 °C).
`CC[C@H](C)[C@H](NC(=O)[C@H](CC(C)C)NC(=O)[C@H](CC(C)C)NC(=O)[C@H](Cc1c[nH]cn1)NC(=O)[C@H](CCCCN)NC(=O)[C@H](Cc1c[nH]cn1)NC(=O)[C@H](CCCNC(=N)N)NC(=O)[C@@H]1CCCN1C(=O)[C@H](Cc1ccc(O)cc1)NC(=O)[C@H](CC(C)C)NC(=O)[C@H](CCC(N)=O)NC(=O)[C@@H](N)CO)C(=O)N[C@@H](CCCCN)C(=O)N[C@@H](CCCNC(=N)N)C(=O)N[C@@H](CO)C(=O)N[C@@H](CC(C)C)C(=O)N[C@@H](CCCNC(=N)N)C(=O)N[C@@H](CS)C(=O)N[C@@H](CCCNC(=N)N)C(=O)N[C@@H](CCCCN)C(=O)N[C@@H](CS)C(=O)O` gave an MBC of 32 µg/mL.
`O=C(C#Cc1ccc(F)c(F)c1)c1ccccc1Cl` gave a rhamnolipid production of 30% (10 µM, 24 h; baseline: untreated).
The MIC of `CC1(C)S[C@@H]2[C@H](NC(=O)C(C(=O)O)c3ccccc3)C(=O)N2[C@H]1C(=O)O` (stereo partly drawn) is reported as 25 µg/mL (≈ 66.1 µM) (fpvA mutant).
With `COc1cc(C#CC(=O)CC(C)C)ccc1O` the rhamnolipid production was 32% (10 µM, 24 h; baseline: untreated).
`O=[N+]([O-])c1cc2c(ccc3c4cc([N+](=O)[O-])oc4ccc23)o1` gave an MIC90 of > 32 µg/mL (REMA).
For `O=C(O)c1cccc(C(=O)O)n1`, “fold MIC reduction” read 4 (IMP-7 producer; 32 µg/mL, together with: meropenem; baseline: meropenem alone).
With `Nc1nc2ccc(S(=O)(=O)c3cnn(CC4COC4)c3)cc2s1` the inhibition was -6.51% (swarming area, modified FAB agar; PA14-lux; 200 µM, 24 h; baseline: DMSO vehicle).
`COc1cccc(C(=O)C#Cc2ccc(F)c(F)c2)c1` gave a pyocyanin production of 42% (10 µM, 24 h; baseline: untreated).
`Nc1c([N+](=O)[O-])oc2ccc3ccccc3c12` gave an MIC90 of > 32 µg/mL (REMA).
`CC[C@H](C)[C@H](NC(=O)[C@H](Cc1c[nH]c2ccccc12)NC(=O)[C@@H](NC(=O)[C@H](Cc1c[nH]c2ccccc12)NC(=O)[C@@H]1CCCN1C(=O)[C@@H](NC(=O)[C@H](C)N)[C@@H](C)CC)[C@@H](C)CC)C(=O)N[C@@H](Cc1c[nH]c2ccccc12)C(=O)N[C@@H](CCCNC(=N)N)C(=O)N[C@@H](CC(C)C)C(=O)N[C@@H](CC(C)C)C(=O)N[C@@H](CCCNC(=N)N)C(=O)N[C@@H](CCCCN)C(=O)NCC(N)=O` gave an MBC of > 15 µM (PAO1; 18 h, 37 °C).
The rhamnolipid production of `COc1cc(C#CC(=O)c2ccccc2OC)ccc1O` is reported as 31% (10 µM, 24 h; baseline: untreated).
The MIC90 of `COc1ccc2c(ccc3oc([N+](=O)[O-])cc32)c1` is reported as > 32 µg/mL (REMA).
For `CC(C)(C)OCC1NC(=O)C(C(=O)NC(C(=O)NC2C(=O)N3C2SC(C)(C)C3C(=O)O)c2ccccc2)=C1O` (stereo not drawn), the MIC was 25 µg/mL (≈ 44.6 µM) (pvcA mutant).
`COc1ccccc1C(=O)C#Cc1ccc(F)c(F)c1` gave an exoprotease production of 85% (10 µM, 24 h; baseline: untreated).
`CNC(C)C1CCC(N)C(OC2C(N)CC(N)C(OC3OCC(C)(O)C(NC)C3O)C2O)O1` (stereo not drawn) gave an MLC of 4 ± 1 µg/mL (≈ 8.38 µM) (broth microdilution).
`C[C@@H](O)[C@H]1C(=O)N2C(C(=O)O)=C(S[C@@H]3CN[C@H](C(=O)N(C)C)C3)[C@H](C)[C@H]12` has an MIC of > 8 µg/mL (1191191, multidrug-resistant).
With `O=C(C#Cc1ccc(F)c(F)c1)c1cccc(Cl)c1` the pyocyanin production was 49% (10 µM, 24 h; baseline: untreated).
The inhibition of `Nc1cc(S(=O)(=O)c2ccc3nc(N)sc3c2)ccn1` is reported as 10.6% (pyocyanin production; PA14-lux; 200 µM, 18 h; baseline: DMSO vehicle).
For `CCOC(=O)COc1ccc2ccc3oc([N+](=O)[O-])cc3c2c1`, the MIC90 was > 32 µg/mL (REMA).
With `NC(=O)COc1ccc2nc(N)sc2c1` the inhibition was 4.2% (swarming area, modified FAB agar; PA14-lux; 200 µM, 24 h; baseline: DMSO vehicle).
With `CC[C@H](C)[C@H](NC(=O)[C@H](CCCCN)NC(=O)[C@H](Cc1c[nH]c2ccccc12)NC(=O)[C@H](Cc1c[nH]c2ccccc12)NC(=O)[C@H](CCCCN)NC(=O)[C@H](CCCCN)NC(=O)[C@H](CCCCN)NC(=O)[C@H](Cc1c[nH]c2ccccc12)NC(=O)[C@H](CCCCN)NC(=O)[C@H](CCCCN)NC(=O)[C@H](Cc1c[nH]c2ccccc12)NC(=O)[C@H](CCCCN)NC(=O)[C@H](CCCCN)NC(=O)[C@@H](NC(=O)[C@@H](NC(=O)[C@H](CCCCN)NC(=O)[C@@H](N)CCCNC(=N)N)[C@@H](C)CC)[C@@H](C)CC)C(=O)N[C@@H](Cc1c[nH]c2ccccc12)C(=O)N[C@@H](Cc1c[nH]c2ccccc12)C(=O)N[C@@H](CCCCN)C(=O)NCCOCCOCC(N)=O` the MIC was 2.2 µg/mL (≈ 0.72 µM) (broth microdilution; 01).
For `N=C(N)NCCC[C@H](NC(=O)[C@@H](N)CCCNC(=N)N)C(=O)N[C@@H](Cc1c[nH]c2ccccc12)C(=O)N[C@@H](Cc1c[nH]c2ccccc12)C(=O)N[C@@H](CCC(N)=O)C(=O)N[C@@H](Cc1ccccc1)C(=O)N[C@@H](CCC(N)=O)C(=O)N[C@@H](Cc1ccccc1)C(=O)N[C@@H](CCCCN)C(N)=O`, the MBC was 620 µM.
`Nc1nc2ccc(Oc3cccnc3)cc2s1` gave an inhibition of 48% (swarming area, modified FAB agar; PA14-lux; 200 µM, 24 h; baseline: DMSO vehicle).
